Assay results pooled from the literature.
Lines come from different studies, so protocols differ.
Technique: steady-state kinetics
B1: YME1 (Saccharomyces cerevisiae, UniProt P32795); chain ADKSVDVAKTNVKFDDVCGCDEARAELEEIVDFLKDPTKYESLGGKLPKGVLLTGPPGTGKTLLARATAGEAGVDFFFMSGSEFDEVYVGVGAKRIRDLFAQARSRAPAIIFIDELDAIGGKRNPKDQAYAKQTLNQLLVELDGFSQTSGIIIIGATNFPEALDKALTRPGRFDKVVNVDLPDVRGRADILKHHMKKITLADNVDPTIIARGTPGLSGAELANLVNQAAVYACQKNAVSVDMSHFEWAKDKILMGAERKTMVLTDAARKATAFHEAGHAIMAKYTNGATPLYKATILPRGRALGITFQLPEMDKVDITKRECQARLDVCMGGKIAEELIYGKDNTTSGCGSDLQSATGTARAMVTQYGMSDDVGPVNLSENWESWSNKIRDIADNEVIELLKDSEERARRLLTKKNVELHRLAQGLIEYETLDAHEIEQVCKGEKLDKLKTSTNTVVEGPDSDERKDIGDDKPKIPTMLNA
B2: putA D779Y (Bradyrhizobium diazoefficiens, UniProt Q89E26); chain MPNIPPPFTAPYAPDDAEIAARLLPASHLSPPQEARIHRTATRLIEAIRKRDDRLGGVEDMLREFALSTKEGLALMVLAEALLRVPDARTADQFIEDKLGEGDFIHHETKSTAFLVNASAWALGLSARVIQPGETPDGTIGRLVKRLGAPAVRTATRQAMRLMGNHFVLGETIEQALERGKPRSGQKTRYSFDMLGEGARTAADARRYFDAYASAIETIGKAAGNHALPDRPGISVKLSALHPRFEAISRARVMVELVPQLLDLAQRAKAHDLNFTVDAEEADRLELSLDVIAATLADPSLKGWDGFGLAIQAYQKRASAVIDYVDALARAHDRKLMVRLVKGAYWDTEIKRAQERGLDGYPVFTRKAMTDLNYVACASKLLALRPRIFPQFATHNALTVATVLEMAEGSSGFEFQRLHGMGEALYEQLAKDHADIAYRTYAPVGSHRDLLAYLVRRLLENGANSSFVAQAADYRVPVPALLQRPADAIVRPQAAAHPRIPLPCDLFAPERRNSRGVEFGARTALDQLLTDVKAETGDLKPIADATPDQAHAAVAAARAGFAGWSRTPAGIRAAALEQAAHLLESRSAHFIALLQREGGKTLDDALSELREAADFCRYYAAQGRKLFGSETAMPGPTGESNALTMRGRGVFVAISPWNFPLAIFLGQVTAALMAGNSVVAKPAEQTPRIAREAVALLHEAGIPKSALYLVTGDGRIGAALTAHPDIAGVVFTGSTEVARSINRALAAKDGPIVPLIAETGGINAMIADATALPEQVADYVVTSAFRSAGQRCSALRLLFVQEDVADRMIEMVAGAARELKIGDPSDVATHVGPVIDVEAKQRLDAHIARMKTEARLHFAGPAPEGCFVAPHIFELTEAGQLTEEVFGPILHVVRYRPENLERVLRAIERTGYGLTLGVHSRIDDSIEAIIDRVQVGNIYVNRNMIGAVVGVQPFGGNGLSGTGPKAGGPHYLARFATEQTVTINTAAAGGNAALLAGEE
B3: enzyme D235A (Thermococcus kodakarensis, UniProt Q5JID5); chain MLYVEILGNLPEMARDEVKAMLELGGGEIIGQDYLFLKVDAGEKAFPFLDRLGLAHEYGLLLVEADSVEELLQKAGEVEWPIKGAFKVDTETMANCRHDVLDLPRKLGAVIHAQGFRVNLSKPDTVVRVYCGERLYAGIRLRYFDPKDFEKRKAHHRPFFRPISLHPRVSRALVNLTKATREILDPFMGAGGILIEAGLLGLRVYGVDIRPEMVEGAETNLKHYGVRDYTLKLGAATRLEDLFPDKKFEAVATDPPYGTAATLAGRKRDELYRKALRSIYNVLEDGGRLAIAFPTDFNGKAEAEAVGFRTLGRYYQRVHKSLERYFYVFEK
B4: enzyme (UniProt A0A2T5C445); chain MKSKQLNTDLFKVQAKQQIRLKNYDPASCNGFANRKEAEHQLKQDIKELADLQYQLYAENKRSVLIVFQAMDAAGKDGSIRHVFSGLNPQGCKVYSFKSPSANELDHDYLWRHYNKLPPRGEIGIFNRSHYENVLITRVHPEFLLNENLPDVHATNDITTEFWERRYRQIRDFEQTLTENGTTIIKFFLHLSKDEQKKRFMERIRKPAKNWKFSSADIRERQYWDDYQHAYEQAMRATSTEEAPWYIIPADNKWFTHVAIGNIIVETLQQMNIQMPEISSEEKDALKKAKKKLQNE
B5: protein Y93N (Thermus thermophilus, UniProt Q5SKR5); chain MSAPKPFVIGIAGGTASGKTTLAQALARTLGERVALLPMDHYYKDLGHLPLEERLRVNYDHPDAFDLALYLEHAQALLRGLPVEMPVYDFRANTRSPRRTPVRPAPVVILEGILVLYPKELRDLMDLKVFVDADADERFIRRLKRDVLERGRSLEGVVAQYLEQVKPMHLHFVEPTKRYADVIVPRGGQNPVALEMLAAKALARLARMGAA
UniProt F1QXD3, sequence (whole entry, looked up): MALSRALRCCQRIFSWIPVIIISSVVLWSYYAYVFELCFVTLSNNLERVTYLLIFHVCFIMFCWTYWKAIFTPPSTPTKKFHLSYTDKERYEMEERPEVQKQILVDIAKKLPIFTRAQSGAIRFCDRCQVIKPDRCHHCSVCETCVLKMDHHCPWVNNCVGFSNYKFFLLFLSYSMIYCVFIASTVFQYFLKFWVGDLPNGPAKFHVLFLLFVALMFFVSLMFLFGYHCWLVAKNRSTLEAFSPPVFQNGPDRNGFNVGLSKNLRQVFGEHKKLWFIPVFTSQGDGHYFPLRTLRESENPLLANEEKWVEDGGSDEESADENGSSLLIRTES
UniProt Q9LQL2, sequence (whole entry, looked up): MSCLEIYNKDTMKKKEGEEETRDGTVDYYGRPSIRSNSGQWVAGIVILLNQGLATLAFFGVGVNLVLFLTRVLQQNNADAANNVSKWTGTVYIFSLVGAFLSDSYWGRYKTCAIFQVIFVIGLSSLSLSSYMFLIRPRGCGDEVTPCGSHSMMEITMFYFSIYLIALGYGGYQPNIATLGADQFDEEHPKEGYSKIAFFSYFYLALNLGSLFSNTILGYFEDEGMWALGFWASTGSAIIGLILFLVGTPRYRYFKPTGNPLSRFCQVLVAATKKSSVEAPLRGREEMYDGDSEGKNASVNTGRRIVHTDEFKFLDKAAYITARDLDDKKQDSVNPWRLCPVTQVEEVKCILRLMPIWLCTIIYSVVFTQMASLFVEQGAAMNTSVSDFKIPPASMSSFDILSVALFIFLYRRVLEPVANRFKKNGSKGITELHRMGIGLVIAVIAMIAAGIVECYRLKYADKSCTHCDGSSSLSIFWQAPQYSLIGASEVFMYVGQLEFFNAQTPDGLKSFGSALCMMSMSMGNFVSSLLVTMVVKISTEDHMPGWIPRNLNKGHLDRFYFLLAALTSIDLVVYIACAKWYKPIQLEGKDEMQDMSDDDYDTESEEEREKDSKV
UniProt Q6WVP7, sequence (whole entry, looked up): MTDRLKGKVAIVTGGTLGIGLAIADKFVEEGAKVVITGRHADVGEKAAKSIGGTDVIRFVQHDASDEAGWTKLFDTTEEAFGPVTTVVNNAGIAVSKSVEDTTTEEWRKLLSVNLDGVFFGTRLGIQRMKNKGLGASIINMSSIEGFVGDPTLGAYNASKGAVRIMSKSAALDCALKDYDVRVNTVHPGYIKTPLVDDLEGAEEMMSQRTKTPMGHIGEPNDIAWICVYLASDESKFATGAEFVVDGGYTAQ
UniProt P07379, sequence (whole entry, looked up): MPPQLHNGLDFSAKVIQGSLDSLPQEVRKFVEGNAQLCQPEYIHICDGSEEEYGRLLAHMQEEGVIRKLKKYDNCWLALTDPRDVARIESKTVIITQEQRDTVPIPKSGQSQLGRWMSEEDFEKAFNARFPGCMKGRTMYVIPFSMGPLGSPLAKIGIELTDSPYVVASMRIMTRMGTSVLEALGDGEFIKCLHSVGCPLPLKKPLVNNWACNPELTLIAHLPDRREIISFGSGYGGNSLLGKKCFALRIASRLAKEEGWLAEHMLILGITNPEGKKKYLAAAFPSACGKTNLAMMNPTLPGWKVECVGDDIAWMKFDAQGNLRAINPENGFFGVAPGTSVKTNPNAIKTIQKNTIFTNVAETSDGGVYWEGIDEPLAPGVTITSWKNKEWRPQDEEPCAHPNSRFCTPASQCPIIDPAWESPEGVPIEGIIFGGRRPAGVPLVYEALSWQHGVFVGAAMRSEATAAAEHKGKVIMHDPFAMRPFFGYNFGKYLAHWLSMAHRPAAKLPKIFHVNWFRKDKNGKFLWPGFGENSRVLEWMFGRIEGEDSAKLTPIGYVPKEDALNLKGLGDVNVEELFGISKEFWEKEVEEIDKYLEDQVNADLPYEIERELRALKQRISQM

Substance	substrate	setting	Km [µM]
enzyme (Arabidopsis thaliana, UniProt Q9LQL2)	O=C(O)CCCc1c[nH]c2ccccc12	pH 5.8, 25 °C, not purified	11
protein (Enterobacter lignolyticus, UniProt E3G9I4)	CCn1c(=NN=c2sc3cc(S(=O)(=O)O)ccc3n2CC)sc2cc(S(=O)(=O)O)ccc21	pH 3.5, 25 °C, with: H2O2	607
Pck1 (Rattus norvegicus, UniProt P07379)	Nc1nc2c(ncn2[C@@H]2O[C@H](COP(=O)(O)OP(=O)(O)OP(=O)(O)O)[C@@H](O)[C@H]2O)c(=O)[nH]1	pH 7.5, 25 °C, with: OAA, GTP	68
pyc (Rhizobium etli, UniProt Q2K340)	Nc1ncnc2c1ncn2[C@@H]1O[C@H](COP(=O)(O)OP(=O)(O)OP(=O)(O)O)[C@@H](O)[C@H]1O	pH 7.8, 30 °C, no pyruvate, with: NaHCO3 20 mM, acetyl CoA 0.25 mM, Mg2+ 5 mM	9
B1 (YME1)	Nc1ncnc2c1ncn2[C@@H]1O[C@H](COP(=O)(O)OP(=O)(O)OP(=O)(O)O)[C@@H](O)[C@H]1O	pH 8, 30 °C	116
B2 (putA D779Y)	O=C(O)[C@@H]1CCC=N1	pH 7.5, 23 °C	200
B3 (enzyme D235A)	C[S+](CC[C@H](N)C(=O)O)C[C@H]1O[C@@H](n2cnc3c(N)ncnc32)[C@H](O)[C@@H]1O	pH 7.5, 50 °C, apparent	45
B4 (enzyme)	Nc1nc2c(ncn2[C@@H]2O[C@H](COP(=O)(O)O)[C@@H](O)[C@H]2O)c(=O)[nH]1	pH 8, 30 °C	3600
protein (Danio rerio, UniProt F1QXD3)	CCCCCCCCCCCCCCCC(=O)SCCNC(=O)CCNC(=O)[C@H](O)C(C)(C)COP(=O)(O)OP(=O)(O)OC[C@H]1O[C@@H](n2cnc3c(N)ncnc32)[C@H](O)[C@@H]1OP(=O)(O)O	pH 6.8, 30 °C	10
VC1 (Vicia faba, UniProt A0AAV0YZD8)	Nc1nc2c(ncn2[C@@H]2O[C@H](COP(=O)(O)OP(=O)(O)OP(=O)(O)O)[C@@H](O)[C@H]2O)c(=O)[nH]1	pH 8, NaCl 100 mM, with: GTP 0-244 µM	66
B5 (protein Y93N)	Nc1ccn([C@@H]2O[C@H](CO)[C@@H](O)[C@H]2O)c(=O)n1	pH 7.2, 25 °C, KCl 100 mM, with: ATP 100–200 µM	470
adh (Lentilactobacillus kefiri, UniProt Q6WVP7)	NC(=O)c1ccc[n+]([C@@H]2O[C@H](COP(=O)(O)OP(=O)(O)OC[C@H]3O[C@@H](n4cnc5c(N)ncnc54)[C@H](OP(=O)(O)O)[C@@H]3O)[C@@H](O)[C@H]2O)c1	pH 9, 30 °C, not purified, cofactor varied	217
protein (Candidatus Protochlamydia amoebophila, UniProt Q6MEN5)	O=c1ccn([C@@H]2O[C@H](COP(=O)(O)OP(=O)(O)OP(=O)(O)O)[C@@H](O)[C@H]2O)c(=O)[nH]1	pH 7, 30 °C, transporter, labelled substrate, apparent, not purified	1320

A few entries again:
Substance	substrate	setting	Km [µM]
protein (Enterobacter lignolyticus, UniProt E3G9I4)	CCn1c(=NN=c2sc3cc(S(=O)(=O)O)ccc3n2CC)sc2cc(S(=O)(=O)O)ccc21	pH 3.5, 25 °C, with: H2O2	607
Pck1 (Rattus norvegicus, UniProt P07379)	Nc1nc2c(ncn2[C@@H]2O[C@H](COP(=O)(O)OP(=O)(O)OP(=O)(O)O)[C@@H](O)[C@H]2O)c(=O)[nH]1	pH 7.5, 25 °C, with: OAA, GTP	68
